{"data": "Measured values collected from several papers", "organism": "Klebsiella pneumoniae", "note": "Compare with care: the assays were run in different laboratories."}
{"Compound": "CN(C)[C@@H]1C(O)=C(C(N)=O)C(=O)[C@@]2(O)C(O)=C3C(=O)c4c(O)cccc4[C@@](C)(O)[C@H]3C[C@@H]12", "assay": "broth microdilution", "system": "ATCC 43816 acrAB overexpressor", "setting": "added: colistin 0.5 mg/L", "MIC": "4 µg/mL"}
{"Compound": "CC(=O)N[C@@H](CCCCN)C(=O)N[C@@H](CCCCN)C(=O)N[C@@H](CC(C)C)C(=O)N[C@@H](CC(C)C)C(=O)N[C@@H](CCCCN)C(=O)N[C@@H](CC(C)C)C(=O)N[C@@H](CC(C)C)C(=O)N[C@@H](CCCCN)C(=O)N[C@@H](CCCCN)C(=O)N1CCC[C@H]1C(=O)N[C@@H](CC(C)C)C(=O)N[C@@H](C)C(=O)N[C@@H](CC(C)C)C(=O)N[C@@H](CC(C)C)C(=O)N[C@@H](CCCCN)C(N)=O", "assay": "broth microdilution", "system": "ATCC 700603", "setting": "18 h, 37 °C, compound alone", "MIC": "> 80 µM"}
{"Compound": "C[C@@H](O)[C@H]1C(=O)N2C(C(=O)O)=C(SCCN=CN)C[C@H]12", "system": "NCCP 15864 carbapenem-resistant, Mueller-Hinton broth", "setting": "16 h, 37 °C", "MIC": "8 µM"}
{"Compound": "CC[C@H](C)[C@H](NC(=O)[C@H](CC(C)C)NC(=O)[C@H](CCCCN)NC(=O)[C@@H](NC(=O)[C@H](C)NC(=O)[C@H](CCC(=O)O)NC(=O)[C@H](Cc1c[nH]cn1)NC(=O)[C@@H](NC(=O)[C@H](CCCCN)NC(=O)[C@H](CCC(N)=O)NC(=O)[C@H](Cc1ccccc1)NC(=O)[C@@H](NC(=O)[C@H](CCCCN)NC(=O)[C@H](CCCCN)NC(=O)[C@H](CC(C)C)NC(=O)[C@H](C)N)C(C)C)[C@@H](C)CC)[C@@H](C)CC)C(N)=O", "assay": "CLSI broth microdilution", "system": "ATCC 13883", "setting": "18 h, 37 °C", "MIC": "16 µM"}
{"Compound": "C[C@@H](O)[C@H]1C(=O)N2C(C(=O)O)=C(SCCN=CN)C[C@H]12", "system": "K2", "setting": "after induction, added: ceftazidime-avibactam, avibactam fixed", "MIC": "64 µg/mL"}
{"Compound": "CC[C@H](C)CCCCC(=O)N[C@@H](CCN)C(=O)N[C@H](C(=O)N[C@@H](CCN)C(=O)N[C@H]1CCNC(=O)[C@H]([C@@H](C)O)NC(=O)[C@H](CCN)NC(=O)[C@H](CCN)NC(=O)[C@H](CC(C)C)NC(=O)[C@@H](CC(C)C)NC(=O)[C@H](CCN)NC1=O)[C@@H](C)O", "assay": "broth microdilution", "system": "ATCC 43816 acrAB overexpressor, cation-adjusted MHB", "MIC": "1 µg/mL"}
{"Compound": "CN1C(=O)Cc2ccc(F)c(CCNC[C@H]3CN(c4ccc5c(n4)NC(=O)CO5)C(=O)O3)c21", "system": "ATCC 13883", "MIC": "0.06 µg/mL"}
{"Compound": "CN(C)[C@@H]1C(O)=C(C(N)=O)C(=O)[C@@]2(O)C(O)=C3C(=O)c4c(O)cnc(F)c4C[C@H]3C[C@@H]12.Cl", "system": "tet(A)-carrying", "MIC": "> 32 µg/mL"}
{"Compound": "CC(=O)N[C@@H](CCCCN)C(=O)N[C@@H](CC(C)C)C(=O)N[C@@H](CC(C)C)C(=O)N[C@@H](CCCCN)C(=O)N[C@@H](CC(C)C)C(=O)N[C@@H](CC(C)C)C(=O)N[C@@H](CCCCN)C(=O)N[C@@H](CCCCN)C(=O)N1CCC[C@H]1C(=O)N[C@@H](CC(C)C)C(=O)N[C@@H](CCCCN)C(=O)N[C@@H](CC(C)C)C(N)=O", "assay": "broth microdilution", "system": "ATCC 700603", "setting": "18 h, 37 °C, compound alone", "MIC": "> 80 µM"}
{"Compound": "Cc1ncc2c(c1O)C(=O)C1=C(O)[C@]3(O)C(=O)C(C(N)=O)=C(O)[C@@H](N(C)C)[C@@H]3C[C@@H]1C2.Cl.Cl", "system": "tet(A)-carrying", "MIC": "> 32 µg/mL"}
{"Compound": "C[C@H]1COc2c(N3CCN(C)CC3)c(F)cc3c(=O)c(C(=O)O)cn1c23", "assay": "agar dilution", "system": "2146 NDM-1", "MIC": "128 µg/mL"}
{"Compound": "CN(C)[C@@H]1C(O)=C(C(N)=O)C(=O)[C@@]2(O)C(O)=C3C(=O)c4c(O)c(N)nc(F)c4C[C@H]3C[C@@H]12.Cl.Cl", "system": "tet(A)-carrying", "MIC": "> 32 µg/mL"}
{"Compound": "CC[C@H](C)[C@H](NC(=O)[C@H](CC(C)C)NC(=O)[C@H](CC(C)C)NC(=O)[C@H](CC(C)C)NC(=O)[C@@H](NC(=O)[C@@H](NC(=O)[C@H](CCCNC(=N)N)NC(=O)[C@H](CCCNC(=N)N)NC(=O)[C@H](CCCNC(=N)N)NC(=O)[C@H](CCCNC(=N)N)NC(=O)[C@H](CC(C)C)NC(=O)[C@H](CCCNC(=N)N)NC(=O)[C@H](CO)NC(=O)[C@@H](N)CO)[C@@H](C)CC)C(C)C)C(=O)N[C@@H](CO)C(=O)N[C@@H](CCCNC(=N)N)C(=O)N[C@@H](CCCNC(=N)N)C(=O)N[C@@H](CCCNC(=N)N)C(=O)N[C@@H](CCCNC(=N)N)C(N)=O", "assay": "broth microdilution", "system": "ATCC 13883", "setting": "highest value reported", "MIC": "4 µM"}
{"Compound": "CN(C)c1ccc(O)c2c1C[C@H]1C[C@H]3[C@H](N(C)C)C(O)=C(C(N)=O)C(=O)[C@@]3(O)C(O)=C1C2=O", "assay": "broth microdilution", "system": "ATCC 43816 acrAB overexpressor", "MIC": "2 µg/mL"}
{"Compound": "CC[C@H](C)[C@H](N)C(=O)N[C@@H](CC(C)C)C(=O)NCC(=O)N[C@@H](CCC(=O)O)C(=O)N[C@H](C(=O)N[C@@H](Cc1c[nH]c2ccccc12)C(=O)N[C@@H](CCCCN)C(=O)NCC(=O)N[C@H](C(=O)N[C@@H](CCCCN)C(=O)N[C@@H](CC(=O)O)C(=O)N[C@H](C(=O)N[C@@H](CC(C)C)C(N)=O)[C@@H](C)CC)[C@@H](C)CC)[C@@H](C)CC", "assay": "broth microdilution", "system": "ATCC 27736, Mueller-Hinton broth", "setting": "16 h, 37 °C", "MIC": "> 100 µM"}
{"Compound": "C[C@H]1COc2c(N3CCN(C)CC3)c(F)cc3c(=O)c(C(=O)O)cn1c23", "system": "1188718, multidrug-resistant", "MIC": "1 µg/mL"}
{"Compound": "COc1ccc2ccc(O)c(/C=N/[C@H]3CCCC[C@H]3/N=C/c3c(O)cccc3F)c2c1", "assay": "bacterial growth, broth microdilution", "system": "carbapenem-resistant clinical isolate", "MIC": "> 40 µM"}
{"Compound": "CC[C@H](C)CCCCC(=O)N[C@@H](CCN)C(=O)N[C@H](C(=O)N[C@@H](CCN)C(=O)N[C@H]1CCNC(=O)[C@H]([C@@H](C)O)NC(=O)[C@H](CCN)NC(=O)[C@H](CCN)NC(=O)[C@H](CC(C)C)NC(=O)[C@@H](CC(C)C)NC(=O)[C@H](CCN)NC1=O)[C@@H](C)O", "assay": "broth microdilution", "system": "ATCC 13883", "MIC": "0.25 µg/mL"}
{"Compound": "CC[C@H](C)[C@H](NC(=O)[C@H](CCCNC(=N)N)NC(=O)[C@H](CCCNC(=N)N)NC(=O)[C@@H](N)CCCNC(=N)N)C(=O)N[C@@H](CO)C(=O)N[C@@H](Cc1ccccc1)C(=O)N[C@@H](CC(C)C)C(=O)NCC(=O)N[C@@H](CO)C(=O)N[C@@H](CCCCN)C(=O)N[C@H](C(=O)N[C@H](C(=O)N[C@H](C(=O)N[C@@H](CC(C)C)C(=O)N[C@@H](CC(C)C)C(=O)N[C@@H](CCCCN)C(=O)N[C@@H](CCCNC(=N)N)C(=O)N[C@@H](CCCNC(=N)N)C(=O)N[C@@H](CCCNC(=N)N)C(=O)N[C@@H](CCCNC(=N)N)C(N)=O)C(C)C)C(C)C)C(C)C", "assay": "broth microdilution", "system": "ATCC 13883", "setting": "highest value reported", "MIC": "16 µM"}
{"Compound": "CC[C@H](C)[C@H](NC(=O)[C@H](Cc1c[nH]c2ccccc12)NC(=O)[C@@H](NC(=O)[C@H](Cc1ccccc1)NC(=O)[C@@H]1CCCN1C(=O)[C@@H](NC(=O)[C@H](C)N)[C@@H](C)CC)[C@@H](C)CC)C(=O)N[C@@H](Cc1ccccc1)C(=O)N[C@@H](CCCNC(=N)N)C(=O)N[C@@H](CC(C)C)C(=O)N[C@@H](CC(C)C)C(=O)N[C@@H](CCCNC(=N)N)C(=O)N[C@@H](CCCCN)C(=O)NCC(N)=O", "assay": "broth microdilution", "system": "ATCC 700603", "setting": "18 h, 37 °C", "MIC": "> 15 µM"}
{"Compound": "CC(=O)N[C@@H](CC(C)C)C(=O)N[C@@H](CC(C)C)C(=O)N[C@@H](CCCCN)C(=O)N[C@@H](CC(C)C)C(=O)N[C@@H](CC(C)C)C(=O)N[C@@H](CCCCN)C(=O)N[C@@H](CCCCN)C(=O)N1CCC[C@H]1C(=O)N[C@@H](CC(C)C)C(=O)N[C@@H](CCCCN)C(=O)N[C@@H](CC(C)C)C(=O)N[C@@H](CC(C)C)C(=O)N[C@@H](CCCCN)C(N)=O", "assay": "broth microdilution", "system": "ATCC 700603", "setting": "18 h, 37 °C, compound alone", "MIC": "> 80 µM"}
{"Compound": "CN(C)c1cc(NC(=O)CNC(C)(C)C)c(O)c2c1C[C@H]1C[C@H]3[C@H](N(C)C)C(O)=C(C(N)=O)C(=O)[C@@]3(O)C(O)=C1C2=O", "assay": "broth microdilution", "system": "KPC-127 producing", "MIC": "2 µg/mL"}
{"Compound": "CN(C)[C@@H]1C(O)=C(C(N)=O)C(=O)[C@@]2(O)C(O)=C3C(=O)c4c(O)cnc(-c5ccccc5)c4C[C@H]3C[C@@H]12.Cl.Cl", "system": "tet(A)-carrying", "MIC": "> 32 µg/mL"}
{"Compound": "CC[C@H](C)CCCCC(=O)N[C@@H](CCN)C(=O)N[C@H](C(=O)N[C@@H](CCN)C(=O)N[C@H]1CCNC(=O)[C@H]([C@@H](C)O)NC(=O)[C@H](CCN)NC(=O)[C@H](CCN)NC(=O)[C@H](CC(C)C)NC(=O)[C@@H](Cc2ccccc2)NC(=O)[C@H](CCN)NC1=O)[C@@H](C)O", "assay": "broth microdilution", "system": "NCTC 5055", "setting": "24 h, 37 °C", "MIC": "4 µg/mL"}
{"note": "For quick reference, copied from above:"}
{"Compound": "CN(C)[C@@H]1C(O)=C(C(N)=O)C(=O)[C@@]2(O)C(O)=C3C(=O)c4c(O)cccc4[C@@](C)(O)[C@H]3C[C@@H]12", "assay": "broth microdilution", "system": "ATCC 43816 acrAB overexpressor", "setting": "added: colistin 0.5 mg/L", "MIC": "4 µg/mL"}
{"Compound": "CC(=O)N[C@@H](CCCCN)C(=O)N[C@@H](CCCCN)C(=O)N[C@@H](CC(C)C)C(=O)N[C@@H](CC(C)C)C(=O)N[C@@H](CCCCN)C(=O)N[C@@H](CC(C)C)C(=O)N[C@@H](CC(C)C)C(=O)N[C@@H](CCCCN)C(=O)N[C@@H](CCCCN)C(=O)N1CCC[C@H]1C(=O)N[C@@H](CC(C)C)C(=O)N[C@@H](C)C(=O)N[C@@H](CC(C)C)C(=O)N[C@@H](CC(C)C)C(=O)N[C@@H](CCCCN)C(N)=O", "assay": "broth microdilution", "system": "ATCC 700603", "setting": "18 h, 37 °C, compound alone", "MIC": "> 80 µM"}
